Experimental data pooled from the literature.
Each line is one published result; not all experiments were run side by side. ± gives the spread as reported.

Under “dose-limiting toxicity upper GI haemorrhage”, `Cn1cncc1-c1c(F)cncc1NC(=O)c1c(N)nn2cc(F)cnc12` is recorded as 0% (human patients; oral, 180 mg once daily, 21 days).
The blood chemistry of `CC(C)Nc1ccnc(Nc2cccc(-c3cccnc3)c2)n1` is reported as 147 U/L (item: alkaline phosphatase; mouse, blood; intraperitoneal, 10 mg/kg).
With `CC(=O)c1c(C)c2cnc(Nc3ccc(C4CCN(CCS(C)(=O)=O)CC4)cn3)nc2n(C2CCCC2)c1=O` the Cmax was 89.6 ng/mL (human, dose-escalation trial, plasma; oral, 50 mg twice daily, day 1, single dose).
`CCC[C@H]1CC[C@H](c2ccc(-c3ccc(F)cc3)cc2)CC1` has a placental accumulation of 332 ± 458 ng/g (rat, placenta; 5000 ng/mL in perfusate, high dose, mixture of 21 LCMs).
`Cn1cccc1-c1cccnc1`: “slowing of nicotine clearance” roughly 50% (one-compartment model; rat; intravenous, 25 % of nicotine, clinically relevant dose).
`CCCCCCCCCCCCOS(=O)(=O)O.O=C(NCCCNc1nc(Nc2cccc(NC(=O)N3CCCC3)c2)ncc1I)c1cccs1` gave a logP of 2.93 ± 1.16 (shake flask; octanol/water).
Under “incidence of Dysgeusia”, `COc1ncnn2ccc(-c3cnc4nc(C)n(Cc5nnc([C@@H](C)F)o5)c4c3)c12` is recorded as 14.3% (human patients; oral, dose not given, all-grade adverse drug reaction).
For `COc1ccc(-c2c(-c3ccc(C#N)c(F)c3)nc(N3CCC(N)CC3)n(C)c2=O)cc1F`, “treatment-related adverse event incidence” read 0% (item: Dysgeusia; human patients; oral, dose not given, grade 3 to 4, dose escalation, NG).
`N.N.[Cl][Pt][Cl]` has an ALT of 50 IU/L (mice, serum; dose not given).
`CC1(C)[C@H](C(=O)OCc2cccc(Oc3ccccc3)c2)[C@@H]1C=C(Cl)Cl` — result for “enzyme contribution to clearance”: 2.9% (item: CYP2B6; human, age 5 years, recombinant human CYP2B6; 0.1 µM).
`CCN(CCO)CCCC(C)Nc1ccnc2cc(Cl)ccc12` (stereo not drawn): “patients with adverse event” 33% (item: Purpura grade 1; newly diagnosed glioblastoma patients; oral, 200 mg/dose, with radiotherapy and temozolomide).
`COc1cccc2c1CCCC2CCCN1CCN(C2CCCCC2)CC1` (stereo not drawn) gave an AUC(0-inf) of 938 ng·h/mL (CD-1 mouse, male, plasma; intraperitoneal, 30 mg/kg).
`Clc1nc[n]([Au][PH](c2ccccc2)(c2ccccc2)c2ccccc2)c1Cl`: “maximum tolerated dose” 5 mg/kg (NCG mouse; intraperitoneal, single dose, 25 days observation).
`C[C@@H](NC(=O)N1C(=O)[C@H](Cc2ccnc(N)c2)[C@H]1C(=O)O)C1CCCCC1`: “incidence of AEs excluding prolonged aPTT” 87.5% (healthy adult Chinese volunteers; continuous intravenous infusion, 0.6 mg/kg/h, 5-day infusion, CTCAE 5.0 grading).
The Nasopharyngitis incidence of `Cc1cc(C)c(CNC(=O)c2cc(Cl)c3c(c2C)O[C@@](C)([C@H]2CC[C@H](N(C)C)CC2)O3)c(=O)[nH]1` is reported as 0% (human, relapsed/refractory NHL; concentration not given, all TEAEs, grade 5).
The drug concentration of `COc1ncccc1-c1cnn2ccc(N3CCN(C(=O)OC(C)C)CC3)nc12` is reported as 320 nM (rat, STZ model, plasma; oral, 3 mg/kg, 240 min).
`C[C@@H]1C[C@@H]([C@H](O)CC2CC(=O)NC(=O)C2)C(=O)[C@@H](C)C1`: ATP level “decreased” (bovine liver slices; 5 mg/mL, 6 h).
With `O=C(Nc1ccc2c(c1)B(O)OC2)c1cccc(OCc2c(Cl)cccc2Cl)c1` the donor concentration was 177 ± 11.7 µM (PAMPA; pre-coated trilayer membrane; 200 µM, 5 h, pH 7.4, donor plate, PBS).
With `O=C([O-])CN1CCN(CC(=O)[O-])CCN(CC(=O)NCC2CCC(C(=O)N[C@@H](Cc3ccc4ccccc4c3)C(=O)NCCCC[C@H](NC(=O)N[C@@H](CCC(=O)O)C(=O)O)C(=O)O)CC2)CCN(CC(=O)[O-])CC1.[177Lu+3]` (stereo partly drawn) the distribution half-life was 3.25 min (BALB/c mouse, blood; intravenous).
Under “TEAE leading to withdrawal”, `N[C@@H]1c2ccccc2OC12CCN(c1cnc3c(N4CCCc5ncccc54)n[nH]c3n1)CC2` is recorded as 50% (advanced metastatic solid tumour patients; oral, 150 mg once daily).
Under “incidence of vomiting”, `C=CC(=O)Nc1cc(Nc2nccc(Nc3cc(Cl)c(F)cc3C(C)(C)O)n2)c(OC)cc1N1CC[C@@H](N(C)C)C1` is recorded as 22.2% (treatment-emergent adverse events; human; oral, 100 mg, phase I clinical trial).
`Oc1ccc(Cl)c(-c2ccc(Cl)cc2Cl)c1Cl` gave an enantiomeric fraction of 0.48 (enantioselective gas chromatography; racemized sample; column temperature 140 °C).
For `C[C@@H]1OC(=O)NN=C1c1ccc(-c2ccc(F)cc2)c(C(F)(F)F)c1`, “patients with adverse event” read 20% (phase I trial, item: Anaemia worst grade 1; human patients; dose not given, all dose groups).
For `CC(C)C[C@H](NC(=O)[C@H](CCCCN)NC(=O)OCC1c2ccccc2-c2ccccc21)C(=O)N[C@H](C(=O)N[C@@H](Cc1ccccc1)C(=O)N[C@@H](Cc1ccccc1)C(=O)N[C@@H](CCCCN)C(=O)NCC(=O)N[C@@H](Cc1ccccc1)C(=O)N[C@@H](C)C(=O)N[C@@H](Cc1c[nH]c2ccccc12)C(=O)N[C@@H](CC(N)=O)C(=O)N[C@H](C(=O)N[C@H]1CSSC[C@@H](C(=O)N[C@@H](Cc2c[nH]cn2)C(=O)N[C@@H](CCCNC(=N)N)C(=O)N[C@@H](CCCNC(=N)N)C(=O)N[C@@H](C)C(=O)N[C@@H](CC(N)=O)C(N)=O)NC(=O)[C@H](C(C)C)NC(=O)[C@H](CCCNC(=N)N)NC(=O)[C@H](C(C)C)NC(=O)CNC(=O)[C@H](CC(N)=O)NC(=O)[C@H](CCCNC(=N)N)NC(=O)[C@H](Cc2ccc(O)cc2)NC(=O)[C@H](C(C)C)NC1=O)C(C)C)C(C)C`, the remaining peptide was 86.9% (HPLC; mouse kidney homogenate; 2560 µM, 2.00 h, 37 °C, 50 mg/mL tissue).
`CO[C@H]1C[C@@H]2CC[C@@H](C)[C@@](O)(O2)C(=O)C(=O)N2CCCC[C@H]2C(=O)O[C@H]([C@H](C)C[C@@H]2CC[C@@H](OC(=O)NCCOCCOCCOCCOCCOCCOCCOCCOCCC(=O)N3CCc4cc(Cn5nc(-c6ccc7oc(N)nc7c6)c6c(N)ncnc65)ccc4C3)[C@H](OC)C2)C[C@@H](O)[C@H](C)/C=C(\C)[C@@H](O)[C@@H](OC)C(=O)[C@H](C)C[C@H](C)/C=C/C=C/C=C/1C` — result for “dose-reducing adverse events”: 0% (phase 1 dose escalation, item: gastric haemorrhage; advanced solid tumour patients; intravenous, 8 mg weekly, any grade).
The alanine aminotransferase of `CCCCCOc1ccc(-c2ccc(-c3ccc(C(=O)N[C@H]4C[C@@H](O)[C@@H](OCC[N+](C)(C)C)NC(=O)[C@@H]5[C@@H](O)[C@@H](C)CN5C(=O)[C@H]([C@@H](C)O)NC(=O)[C@H]([C@H](O)[C@@H](O)c5ccc(O)cc5)NC(=O)[C@@H]5C[C@@H](O)CN5C(=O)[C@H]([C@@H](C)O)NC4=O)cc3)cc2)cc1` is reported as 18 U/L (adult ICU patients, mITT, serum; dose not given, EOT).
Under “patients with increased GGT”, `O=C1Nc2cc3[nH]nc(-c4ccncc4)c3cc2CN1Cc1ccccc1` is recorded as 0% (CTCAE v4.03; advanced solid tumour patients; intravenous, 0.45 mg/kg, schedules 1/2).
Under “mean corpuscular haemoglobin”, `O=S(=O)(Nc1ccccc1)c1ccc(NC(=S)Nc2ccccc2)cc1` is recorded as 15.6 pg (mouse, male, blood; oral, 20 mg/kg daily, 14 days).
`CC(C)[C@@H]1CC[C@@H](C)C[C@@H]1O` has a direct bilirubin of 0.25 ± 0.09 mg/dL (acute oral toxicity OECD; Swiss albino mice, serum; oral, 1000 mg/kg).
Under “drug-related urine abnormality”, `C[C@]1(CO)Cc2ncn(-c3ccc(C#N)c(Cl)c3)c2C(=O)O1` is recorded as 0% (human; all treatments, European food-effect part).
Under “patients with adverse event”, `CN1CC[C@@H](c2c(O)cc(O)c3c(=O)cc(-c4ccc(C(F)(F)F)cc4Cl)oc23)[C@@H]1CO` is recorded as 12.5% (item: Vomiting; B-cell malignancies or AML; oral, 100 mg, continuous dosing).
`C=CCNc1c(O)cc2c(O)c1C[C@@H](C)C[C@H](OC)[C@H](O)[C@@H](C)/C=C(\C)[C@H](OC(N)=O)[C@@H](OC)/C=C\C=C(/C)C(=O)N2`: “patients with constipation TEAE” 33% (unresectable or metastatic STS, GIST, other; intravenous, 150 mg/m^2).
For `N=C(N)NCCC[C@@H](NC(=O)[C@@H](N)Cc1ccccc1)C(=O)N[C@@H](Cc1ccccc1)C(=O)N[C@@H](CCCCN)C(N)=O`, “median amount excreted in urine” read 1.43e+06 ng (LC-MS; human; 25 mg, 11.83 h).
`O=C(O)CCCOc1ccc(F)cc1-c1cc(-c2ccccc2C(F)(F)F)n(-c2ccccc2)n1`: “serum protein fraction” 5.5 ± 1.4% (item: γ-glb; Crl:CD(SD) rats, female, serum; iv, 25 µg/kg, 1 day).
`COc1cc2c(Oc3ccc4[nH]c(C)cc4c3F)ccnc2cc1OCC1(N)CC1`: “grade 1 or 2 Vomiting” 0% (paediatric recurrent refractory sarcoma; 8 mg).
Under “placebo-corrected QTcF change”, `NCCCC[C@@H]1NC(=O)[C@@H](Cc2c[nH]c3ccccc23)NC(=O)[C@H](c2ccccc2)NC(=O)[C@@H]2C[C@@H](OC(=O)NCCN)CN2C(=O)[C@H](Cc2ccccc2)NC(=O)[C@H](Cc2ccc(OCc3ccccc3)cc2)NC1=O` is recorded as 5.5 ms (healthy volunteers, female; 600 µg twice daily, 1.0 h, post hoc).
